Results pooled from the literature.
A part holds a random share of what one study measured.

Study 1
Target: Ras GTPase-activating protein-binding protein 1, C-terminal RGG region (G3BP1, Homo sapiens, UniProt Q13283)
Sequence of UniProt Q13283 (whole entry, looked up): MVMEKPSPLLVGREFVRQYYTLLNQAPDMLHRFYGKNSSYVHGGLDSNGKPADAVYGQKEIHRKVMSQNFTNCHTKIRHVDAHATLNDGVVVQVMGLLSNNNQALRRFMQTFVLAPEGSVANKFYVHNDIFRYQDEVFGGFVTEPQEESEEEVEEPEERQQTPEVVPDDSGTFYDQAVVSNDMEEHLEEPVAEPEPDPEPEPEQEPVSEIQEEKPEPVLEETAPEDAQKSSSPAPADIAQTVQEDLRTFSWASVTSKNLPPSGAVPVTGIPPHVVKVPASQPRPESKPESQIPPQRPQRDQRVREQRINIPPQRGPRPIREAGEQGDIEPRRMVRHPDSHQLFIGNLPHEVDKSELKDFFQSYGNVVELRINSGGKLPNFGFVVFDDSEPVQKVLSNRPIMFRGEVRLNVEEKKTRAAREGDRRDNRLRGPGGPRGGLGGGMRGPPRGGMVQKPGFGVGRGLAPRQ
Technique: RNA Bind-n-Seq
Form: RNA
Medium: in vitro
Tested at: 1 µM
Notes: whole 134-nt RNA, ends assumed
Added: 150 mM KCl
Baseline: input library
Reading: higher = stronger binding
| Strand | log2 enrichment |
| --- | --- |
| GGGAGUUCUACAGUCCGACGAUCAAGUCCUGUGCUACACAUCGUAUGUACCGAAUCGGAAAAGGGAAAAGGGGAAAAGGAAAGUAUUAUGUUACGCCGUUCGGAUCUGCACUUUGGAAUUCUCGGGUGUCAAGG | -1.61 |
| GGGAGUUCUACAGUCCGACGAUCCCUGUGCUACACAUCGUAUGUACCGAAUCGGGUUUUUUGGGGUUUUUUGGGGUUUUUUGGGAAAGUAUUAUGUUACGCCGUUCGGAUCUGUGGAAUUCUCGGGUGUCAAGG | -0.705 |
| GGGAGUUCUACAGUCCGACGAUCGUCCUGUGCUACACAUCGUAUGUACCGAAUCGGGAAAAAGGGUUUUUUUGGGUUUGGGAAAGUAUUAUGUUACGCCGUUCGGAUCUGCACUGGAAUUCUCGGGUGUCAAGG | -0.687 |
| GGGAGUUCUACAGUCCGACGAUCUGGGAGGUGGAUUUUGUUUAUUUUUUUAGCUCAUUUCCAGGGGUGGGAAUUUUUUCUUAAUAUGUGUCAUGAAUAAAGUUGUUUUUGAAAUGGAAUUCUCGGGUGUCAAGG | 3.76 |
| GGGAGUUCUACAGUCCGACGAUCACUUUGUCAGAUAUUGCUAGGGACCAGUGAGAUAGAUAAUCCAAAAAUAAUAAUUUGACUUUGGUUGAGUAUGUCAUUACCACAGUGUUAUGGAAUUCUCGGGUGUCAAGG | -2.3 |
| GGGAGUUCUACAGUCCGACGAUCAGUCCUGUGCUACACAUCGUAUGUACCGAAUCGGGAAAAGGGGAAAAGGAAAAGGGGAAAGUAUUAUGUUACGCCGUUCGGAUCUGCACUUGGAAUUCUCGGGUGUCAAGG | -0.377 |
| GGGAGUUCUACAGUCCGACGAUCCUCAAGUCCUGUGCUACACAUCGUAUGUACCGAAUCGGUGGUGGUUUUUUUGGAAAGUAUUAUGUUACGCCGUUCGGAUCUGCACUUCCAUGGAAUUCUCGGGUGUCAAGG | -0.783 |
| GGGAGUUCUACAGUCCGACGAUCCAAGUCCUGUGCUACACAUCGUAUGUACCGAAUCGGGAGGGUGGGUUUUUUUGGGAAAGUAUUAUGUUACGCCGUUCGGAUCUGCACUUCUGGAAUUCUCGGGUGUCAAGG | 1.01 |
| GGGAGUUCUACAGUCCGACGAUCAAGUCCUGUGCUACACAUCGUAUGUACCGAAUCGGGUUUUUUUGGGUUUGGGAGGGAAAGUAUUAUGUUACGCCGUUCGGAUCUGCACUUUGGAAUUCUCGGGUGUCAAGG | 0.649 |
| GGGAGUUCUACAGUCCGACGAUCUCAAGUCCUGUGCUACACAUCGUAUGUACCGAAUCGGUGGAAAAAGGUUUUUGGAAAGUAUUAUGUUACGCCGUUCGGAUCUGCACUUCCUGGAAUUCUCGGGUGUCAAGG | -1.18 |

Study 2
Target: RING finger protein unkempt homolog, zinc fingers 1-6, GST-SBP tag (UNK, Homo sapiens, UniProt Q9C0B0, residues 30-357)
Sequence of UniProt Q9C0B0 (30-357, looked up): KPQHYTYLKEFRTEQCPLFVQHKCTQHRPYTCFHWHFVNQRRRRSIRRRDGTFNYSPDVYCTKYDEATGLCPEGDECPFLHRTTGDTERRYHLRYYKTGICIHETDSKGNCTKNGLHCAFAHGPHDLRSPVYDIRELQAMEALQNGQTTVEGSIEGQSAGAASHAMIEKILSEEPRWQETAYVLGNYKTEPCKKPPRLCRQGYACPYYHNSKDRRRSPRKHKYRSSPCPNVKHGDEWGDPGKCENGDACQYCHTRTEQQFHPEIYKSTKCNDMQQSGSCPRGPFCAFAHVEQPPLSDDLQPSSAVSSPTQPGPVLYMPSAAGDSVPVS
Technique: RNA Bind-n-Seq
Form: RNA
Medium: in vitro
Tested at: not given
Notes: RNA with constant flanks, human-mouse chimeric sites, ends assumed
Baseline: input RNA pool
Reading: higher = stronger binding
| Strand | bound/input enrichment [ratio] |
| --- | --- |
| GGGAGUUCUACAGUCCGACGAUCACACAAUAUGAGACCAACAGCAUGGACUUCAAAGUUGGGGCAGAUGGGACAGUCUUCGCCACUAGGGAGCUGCAGGUCCCCUCCGAGCAGGUGGCGUUUACCGUCACUGCAUGGGACAGCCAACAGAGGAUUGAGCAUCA | 0.178 |
| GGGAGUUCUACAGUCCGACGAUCUUUGUAAUAUCUGUAAAAGGUUCCCCCCCCCUACUGUCAAAAAAUAUGCAUGUAUAGUAAUUAGGACUUCAUUCCUCCAUGUUUUCUUCCCUUAUCUUACUGUCAUUGUCCUUAAACCUUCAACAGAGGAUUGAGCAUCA | 2.93 |
| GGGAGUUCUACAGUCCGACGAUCUACUCAACUUUCUUGCCACAUUUUGAAUUCCAAGACAUUAUUCCUCCAGAUGACUUCCUAACUAGUGAUGAAGAGCAAGAUUUGGUUUUAUUUGGAAGUUUGAGAGGACAAGUUGUUGGACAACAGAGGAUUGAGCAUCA | 0.473 |
| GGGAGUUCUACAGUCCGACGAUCUAAGUUAUUUUGUACAGCUUUGUAAAUUCUUAACAUUUUUAUAUUGCCAUGUUUAUUUUGUUUGGGUAAUUUGGUUCAUUAAGUACAAAACCAAAUAACAUCUUUCAUUUUUCAGUAAUUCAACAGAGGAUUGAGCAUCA | 0.857 |
| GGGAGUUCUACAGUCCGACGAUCCUGUGACCACAAGAUCCUACCUGAGUGGCAGCUGAAGCACUUUUCUUCUCCUUGCCUGAACCCCCCCCCACUGCCCCCCCAUCCCCCAGUGUCGGCUGAGAUGUUGCCAGCAGACAGUUCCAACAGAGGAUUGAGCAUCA | 0.661 |
| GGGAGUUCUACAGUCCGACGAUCAUAGAUGAAAUUGAUGUGGACCAGGAAGGAAUUGCUGAAAUGAUCCUGGAUGAAAAUGCUAUUGCUCAGGUCCCACGCCCUGGAACGUCUUUGAAGCUCCCUGGCACUAAUCAGACAGGACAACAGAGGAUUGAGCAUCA | 0.296 |
| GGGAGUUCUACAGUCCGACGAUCGAUAAGAAAAGCUUGUUGGAGACCCGCUUGCAUGUCACUGGUAGAGAACUGAGGUCCCAAAUAGCUGAAACCUUUGGAUUUCAAGAAAAUUACAUCAAGAUCGUAAUAAAUAAGAAACAGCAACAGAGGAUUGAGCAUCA | 0.44 |
| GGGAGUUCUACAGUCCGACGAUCGUCAACAGCUGCCUCAAUCCCAUUCUCUACGCCUUCCUGGAUGAGAACUUCAAGGCCUGCUUCCGCAAGUUCUGCUGUGCAUCUGCCCUGCGCCGGGACGUGCAGGUGUCUGACCGCGUGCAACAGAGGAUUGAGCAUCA | 0.453 |
| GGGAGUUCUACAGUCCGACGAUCUACUCAACUUUCUUGCCACAUUUUGAAUUCCAAGACAUUAUUCCUCCAGAUGACUUUCUAACGAGUGAUGAAGAGCAAGAUUUGGUUUUAUUUGGAACUAUGAGAGGUCAUGUGGUUGGACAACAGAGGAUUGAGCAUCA | 0.241 |
| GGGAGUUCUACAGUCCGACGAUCGCACUUCUCAAAUACUGGCCAAAGACUCACAGUCCAAAAGAAGUAAUGUUCUUAAAUGAAUUAGAAGAGAUUUUAGAUGUAAUUGAACCAUCAGAAUUUGUGAAGAUCAUGGAGCCUCUUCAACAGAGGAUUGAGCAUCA | 0.46 |
| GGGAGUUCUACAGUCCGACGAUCAACAGAUUGUCUUUAAGCAUUCCAAGCGAGAAUGCUGGGGUGAUCAUUGUUGCCCAUGUGCCUUCUGACUGAGCUUUAAUGCUGUUCCAUGUUACAUUGAUGUUCUUCUCCAGAAUUGUUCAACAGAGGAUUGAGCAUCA | 0.119 |

Study 3
Target: RNA binding protein fox-1 homolog 2, RRM domain, GST-SBP tag (RBFOX2, Homo sapiens, UniProt O43251-10, residues 100-194)
Technique: RNA Bind-n-Seq
Form: RNA
Medium: in vitro
Tested at: 365 nM
Notes: natural RNA segment, single round, ends assumed
Baseline: no-protein control
Reading: higher = stronger binding
Residues (chain): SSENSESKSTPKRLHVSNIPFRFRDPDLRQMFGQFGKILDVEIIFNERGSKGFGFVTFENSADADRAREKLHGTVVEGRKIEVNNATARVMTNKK
| Strand | RBNS enrichment (R) |
| --- | --- |
| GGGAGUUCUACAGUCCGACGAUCUCAAGACUUUGUGUCUAAUGUUUUUCAAACUUCCCAUUAGAUCACUGCUUCAAUACAAAACCAGCAGAAAUAUAAAAAAAAAAAAAUACUUCAGUUAUUGGUGUCCAUGAUGGAAUUCUCGGGUGCCAA | 0.898 |
| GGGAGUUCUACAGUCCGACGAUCGGGGCCAUCAAACUGUCUACCUGAUGCUGUGGUUUCUGCUUAGAGAUCUGGAGGAGGGCAGCGGAGCCUGCCUCGGUUCAGUGAUGGUUUUUCUUACCUGCUUCAAGCCGUGGAAUUCUCGGGUGCCAA | 0.245 |
| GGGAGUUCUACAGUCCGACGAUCCAGCAAUCACAGCUCAAAUUGUGGACAAUCAAACCAAAGCCUUCAUUUAAGUUUGGCCACAUUUCAAAGAAAAUUGAAGUCCCAGCCUCAGAGAGUGUCGGUGGUUAAAGUGGAAUUCUCGGGUGCCAA | 0.28 |
| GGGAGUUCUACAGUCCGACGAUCAGAAGAGAGGACCUUGUUCUCUGUAGUUGGGAAUCCCAACUCUGAAUCUUUACAACAUCCAUCGUCACAAAAGAGUGUUAUACAUUUAAUCCACAGGGCAUAGUUUUCUUUGGAAUUCUCGGGUGCCAA | 0.486 |
| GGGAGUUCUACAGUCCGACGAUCCAAACUUCAUUGUUGCUUUCUCUUCUGGCCUUGUAAUGUUUGAGUCAAGCCCUGCUUCUCAGCUAGUGAGCAUCAGCCCAAAGUCAGAACUCACAGGGGAUUCUCUGCAUUGGAAUUCUCGGGUGCCAA | 1.25 |
| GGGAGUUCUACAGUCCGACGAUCUUUCUGGAAUUUUCCGUUUGGGAAUCUCCACUUCUGGGGUUUACCUGUUCGGCCUCCUGUCUAUCAGUGAGGCAUCUCUGACUGUUUCUUCUACUGCUUUUCAGUUCCCUUGGAAUUCUCGGGUGCCAA | 0.232 |
| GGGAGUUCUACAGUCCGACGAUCAAGGGCAAUGUUUUUCUGUAACAUAUUGGAAAAAGAAAAUGCAGUUAUAUUCCUUUUUUAUUUGUUCCUUUAGUUUGUUUUGGUUCAGCAGUCAGCAGUUAAGUAUAUAAUGGAAUUCUCGGGUGCCAA | 0.927 |
| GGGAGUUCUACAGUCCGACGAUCCGGAGAUCCAGGGGCCUCCAGCUGCUCCUUUCUUCUGUGUCCUGUUAUUUGGGUCCCAGAUGGAGCCCACCGCGGACUUGCCUUGCAUUCCUCAGGCCAGGCAAGCCUGAUGGAAUUCUCGGGUGCCAA | 0.582 |
| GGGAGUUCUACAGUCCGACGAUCCGAGAGGGCAUAUGGGGCCCUGCCAACACCACUUCCUCAGCAGAAACCCGUCAUGACGCGGCUGCUUCGGAAGCAGACAUCUGGGGACACAGCCUCAGUACCCAGUCUUUUGGAAUUCUCGGGUGCCAA | 0.342 |

Study 4
Target: PABPC1L2, full length, GST fusion (mouse, UniProt A0ABA7IW68)
Technique: RNAcompete
Form: RNA
Medium: in vitro
Tested at: 20 nM
Notes: 7-mer, probes averaged, single round
Baseline: mean of 7-mers
Reading: higher = stronger binding
Target sequence (chain): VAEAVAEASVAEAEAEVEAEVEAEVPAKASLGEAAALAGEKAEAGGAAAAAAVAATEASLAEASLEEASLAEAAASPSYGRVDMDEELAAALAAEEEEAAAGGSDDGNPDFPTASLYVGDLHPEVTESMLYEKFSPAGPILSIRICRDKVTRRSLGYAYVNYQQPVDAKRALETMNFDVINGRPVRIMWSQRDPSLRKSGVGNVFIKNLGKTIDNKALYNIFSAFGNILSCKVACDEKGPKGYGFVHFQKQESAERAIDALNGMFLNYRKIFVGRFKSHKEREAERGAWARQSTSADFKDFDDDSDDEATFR
| Strand | 7-mer Z-score |
| --- | --- |
| UCCGUAA | -0.0246 |
| GCGCUCC | -0.273 |
| AGCGGGG | 0.361 |
| AGUAGAU | 0.0243 |
| UAGUCCU | -0.382 |
| CGACUCG | -0.258 |
| CUCUUGC | -0.489 |
| GAACGCU | -0.0881 |
| UGUCCGA | -0.248 |
| GGAAGGG | 0.274 |
| AACAGGU | 0.586 |
| ACGGAGC | 0.0297 |
| AAGGAAC | 0.341 |
| GUCAUGG | -0.0554 |
| AAUCGUU | -0.224 |
| ACGCCGA | -0.208 |
| GUGAGUG | -0.19 |
| GACGUGU | -0.273 |
| UUAAGCA | -0.0627 |
| UGUGGCC | -0.289 |

Some of these lines once more (study 2):
| Strand | bound/input enrichment [ratio] |
| --- | --- |
| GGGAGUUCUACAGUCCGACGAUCAUAGAUGAAAUUGAUGUGGACCAGGAAGGAAUUGCUGAAAUGAUCCUGGAUGAAAAUGCUAUUGCUCAGGUCCCACGCCCUGGAACGUCUUUGAAGCUCCCUGGCACUAAUCAGACAGGACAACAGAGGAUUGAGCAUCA | 0.296 |
| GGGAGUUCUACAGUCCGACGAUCGAUAAGAAAAGCUUGUUGGAGACCCGCUUGCAUGUCACUGGUAGAGAACUGAGGUCCCAAAUAGCUGAAACCUUUGGAUUUCAAGAAAAUUACAUCAAGAUCGUAAUAAAUAAGAAACAGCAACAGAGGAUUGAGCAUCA | 0.44 |
| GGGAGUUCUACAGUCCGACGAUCGUCAACAGCUGCCUCAAUCCCAUUCUCUACGCCUUCCUGGAUGAGAACUUCAAGGCCUGCUUCCGCAAGUUCUGCUGUGCAUCUGCCCUGCGCCGGGACGUGCAGGUGUCUGACCGCGUGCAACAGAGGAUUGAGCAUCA | 0.453 |
| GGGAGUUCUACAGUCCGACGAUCUACUCAACUUUCUUGCCACAUUUUGAAUUCCAAGACAUUAUUCCUCCAGAUGACUUUCUAACGAGUGAUGAAGAGCAAGAUUUGGUUUUAUUUGGAACUAUGAGAGGUCAUGUGGUUGGACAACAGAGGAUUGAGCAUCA | 0.241 |
